Assay results of several laboratories.
Protocols differ between the studies behind these lines.

For `CC[C@H](C)[C@H](NC(=O)CN)C(=O)N[C@@H](CCCCN)C(=O)N[C@@H](CCCCN)C(=O)N[C@@H](Cc1ccccc1)C(=O)N[C@@H](CC(C)C)C(=O)N[C@@H](CCCCN)C(=O)N[C@@H](CO)C(=O)N[C@@H](C)C(=O)N[C@@H](CCCCN)C(=O)N[C@@H](CCCCN)C(=O)N[C@@H](Cc1ccccc1)C(=O)N[C@H](C(=O)N[C@@H](CCCCN)C(=O)N[C@@H](C)C(=O)N[C@@H](Cc1ccccc1)C(=O)N[C@@H](CCCCN)C(N)=O)C(C)C`, the retention time was 1.86 min (UPLC; TFA water/acetonitrile gradient; longer = more hydrophobic).
For `CC[C@H](C)[C@H](NC(=O)[C@H](Cc1ccc(O)cc1)NC(=O)[C@@H](N)CC(C)C)C(=O)N[C@@H](CCC(N)=O)C(=O)N[C@@H](CC(N)=O)C(=O)N[C@@H](CC(C)C)C(=O)O`, the retention time was 15.9 min (RP-HPLC C18).
With `CCCC[C@H](NC(=O)[C@@H](NC(=O)[C@H](CCC(=O)O)NC(=O)CNC(=O)[C@@H](NC(=O)[C@H](Cc1ccccc1)NC(=O)[C@H](C)NC(=O)[C@H](CCCCN)NC(=O)CNC(=O)[C@H](Cc1ccccc1)NC(=O)[C@H](CCCCN)NC(=O)[C@H](CCCCN)NC(=O)[C@H](C)NC(=O)[C@H](CO)NC(=O)[C@]1(C)CCCC=CCCC[C@](C)(NC(=O)[C@@H](NC(=O)CN)[C@@H](C)CC)C(=O)N[C@@H](CCCCN)C(=O)N[C@@H](Cc2ccccc2)C(=O)N[C@@H](CC(C)C)C(=O)N1)C(C)C)[C@@H](C)CC)C(=O)N[C@@H](CC(N)=O)C(=O)N[C@@H](CO)C(N)=O` the retention time was 13.5 min (HPLC C18 column).
With `N=C(N)NCCC[C@H](NC(=O)[C@@H]1CCCN1C(=O)[C@H](CCC(N)=O)NC(=O)[C@H](CCCCN)NC(=O)[C@H](CC(=O)O)NC(=O)[C@@H]1CCCN1C(=O)[C@H](Cc1ccccc1)NC(=O)CNC(=O)[C@H](CCC(=O)O)NC(=O)[C@H](Cc1ccccc1)NC(=O)[C@@H](N)Cc1ccccc1)C(=O)N[C@@H](CCCCN)C(=O)N[C@@H](CCCCN)C(N)=O` the retention time was 13 min (RP-HPLC; C18 column).
With `CC[C@H](C)[C@H](NC(=O)CN)C(=O)N[C@@H](CCCCN)C(=O)N[C@@H](CCCCN)C(=O)N[C@@H](Cc1ccccc1)C(=O)N[C@@H](CC(C)C)C(=O)N[C@@H](CCCCN)C(=O)N[C@@H](CO)C(=O)N[C@@]1(C)CCCC=CCCC[C@@](C)(C(=O)N[C@@H](CCCCN)C(=O)N[C@@H](C)C(=O)N[C@@H](Cc2ccccc2)C(=O)N[C@@H](CCCCN)C(N)=O)NC(=O)[C@H](Cc2ccccc2)NC(=O)[C@H](CCCCN)NC(=O)[C@H](CCCCN)NC1=O` the retention time was 2.38 min (UPLC; TFA water/acetonitrile gradient; longer = more hydrophobic).
`CC[C@H](C)[C@H](NC(=O)[C@H](CC(N)=O)NC(=O)[C@@H](N)CC(N)=O)C(=O)N[C@@H](CCC(N)=O)C(=O)N[C@@H](Cc1c[nH]c2ccccc12)C(=O)N[C@@H](CC(C)C)C(=O)O` has a retention time of 16.6 min (RP-HPLC C18).
The retention time of `CCCC[C@H](NC(=O)[C@@H](NC(=O)[C@H](CCC(=O)O)NC(=O)CNC(=O)[C@@H](NC(=O)[C@H](Cc1ccccc1)NC(=O)[C@H](C)NC(=O)[C@H](CCCCN)NC(=O)[C@]1(C)CCCC=CCCC[C@](C)(NC(=O)[C@H](CO)NC(=O)[C@H](Cc2c[nH]cn2)NC(=O)[C@H](CC(C)C)NC(=O)[C@H](Cc2ccccc2)NC(=O)[C@H](CCCCN)NC(=O)CNC(=O)[C@@H](NC(=O)CN)[C@@H](C)CC)C(=O)N[C@@H](CCCCN)C(=O)N[C@@H](CCCCN)C(=O)N[C@@H](Cc2ccccc2)C(=O)N1)C(C)C)[C@@H](C)CC)C(=O)N[C@@H](CC(N)=O)C(=O)N[C@@H](CO)C(N)=O` is reported as 16.1 min (HPLC C18 column).
With `CC(C)C[C@H](N)C(=O)N[C@@H](Cc1ccc(O)cc1)C(=O)N[C@@H](CCC(N)=O)C(=O)N[C@@H](CCC(N)=O)C(=O)N[C@@H](CC(N)=O)C(=O)N[C@@H](Cc1ccc(O)cc1)C(=O)O` the retention time was 12.8 min (RP-HPLC C18).
`CCCC[C@@H]1NC(=O)[C@H]([C@@H](C)CC)NC(=O)[C@H](CCC(=O)O)NC(=O)[C@@](C)(NC(=O)[C@@H](NC(=O)[C@H](Cc2ccccc2)NC(=O)[C@H](C)NC(=O)[C@H](CCCCN)NC(=O)CNC(=O)[C@H](Cc2ccccc2)NC(=O)[C@H](CCCCN)NC(=O)[C@H](CCCCN)NC(=O)[C@H](C)NC(=O)[C@H](CO)NC(=O)[C@H](Cc2c[nH]cn2)NC(=O)[C@H](CC(C)C)NC(=O)[C@H](Cc2ccccc2)NC(=O)[C@H](CCCCN)NC(=O)CNC(=O)[C@@H](NC(=O)CN)[C@@H](C)CC)C(C)C)CCCC=CCCC[C@@](C)(C(=O)N[C@@H](CO)C(N)=O)NC1=O` has a retention time of 12.7 min (HPLC C18 column).
`CC[C@H](C)[C@H](NC(=O)[C@H](Cc1ccc(O)cc1)NC(=O)[C@@H](N)CC(C)C)C(=O)N[C@@H](CCC(N)=O)C(=O)N[C@@H](Cc1c[nH]c2ccccc12)C(=O)N[C@@H](CC(C)C)C(=O)O` gave a retention time of 18.9 min (RP-HPLC C18).
For `CC[C@H](C)[C@H](NC(=O)CN)C(=O)N[C@@H](CCCNC(=N)N)C(=O)N[C@@H](CCCNC(=N)N)C(=O)N[C@@H](Cc1ccccc1)C(=O)N[C@@H](CC(C)C)C(=O)N[C@@H](CCCNC(=N)N)C(=O)N[C@@H](CO)C(=O)N[C@@H](C)C(=O)N[C@@H](CCCNC(=N)N)C(=O)N[C@@H](CCCNC(=N)N)C(=O)N[C@@H](Cc1ccccc1)C(=O)N[C@H](C(=O)N[C@@H](CCCNC(=N)N)C(=O)N[C@@H](C)C(=O)N[C@@H](Cc1ccccc1)C(=O)N[C@@H](CCCNC(=N)N)C(N)=O)C(C)C`, the retention time was 2.1 min (UPLC; TFA water/acetonitrile gradient; longer = more hydrophobic).
With `CCCC[C@H](NC(=O)[C@]1(C)CCCC=CCCC[C@](C)(NC(=O)[C@H](C)NC(=O)[C@H](CCCCN)NC(=O)CNC(=O)[C@H](Cc2ccccc2)NC(=O)[C@H](CCCCN)NC(=O)[C@H](CCCCN)NC(=O)[C@H](C)NC(=O)[C@H](CO)NC(=O)[C@H](Cc2c[nH]cn2)NC(=O)[C@H](CC(C)C)NC(=O)[C@H](Cc2ccccc2)NC(=O)[C@H](CCCCN)NC(=O)CNC(=O)[C@@H](NC(=O)CN)[C@@H](C)CC)C(=O)N[C@@H](C(C)C)C(=O)NCC(=O)N[C@@H](CCC(=O)O)C(=O)N1)C(=O)N[C@@H](CC(N)=O)C(=O)N[C@@H](CO)C(N)=O` the retention time was 12.1 min (HPLC C18 column).
The retention time of `CC[C@H](C)[C@@H]1NC(=O)[C@](C)(N)CCCCCCC=CCCC[C@@](C)(C(=O)N[C@@H](C)C(=O)N[C@@H](CCCCN)C(=O)N[C@@H](CCCCN)C(=O)N[C@@H](Cc2ccccc2)C(=O)N[C@H](C(=O)N[C@@H](CCCCN)C(=O)N[C@@H](C)C(=O)N[C@@H](Cc2ccccc2)C(=O)N[C@@H](CCCCN)C(N)=O)C(C)C)NC(=O)[C@H](CCCCN)NC(=O)[C@H](CC(C)C)NC(=O)[C@H](Cc2ccccc2)NC(=O)[C@H](CCCCN)NC(=O)[C@H](CCCCN)NC1=O` is reported as 2.57 min (UPLC; TFA water/acetonitrile gradient; longer = more hydrophobic).
With `CSCC[C@H](NC(=O)[C@H](Cc1ccccc1)NC(=O)CNC(=O)[C@H](CCCCN)NC(=O)[C@H](CCCCN)NC(=O)[C@@H](N)CCC(=O)O)C(=O)N[C@@H](CCC(=O)O)C(=O)N[C@@H](CCCCN)C(=O)N[C@@H](CC(C)C)C(=O)N[C@@H](CCCCN)C(=O)N[C@@H](CCC(=O)O)C(=O)N[C@@H](CCCCN)C(=O)N[C@@H](CC(C)C)C(=O)N1CCC[C@H]1C(=O)NCC(N)=O` the retention time was 14.4 min (RP-HPLC; C18 column).

Excerpt of the above:
For `CC[C@H](C)[C@H](NC(=O)[C@H](Cc1ccc(O)cc1)NC(=O)[C@@H](N)CC(C)C)C(=O)N[C@@H](CCC(N)=O)C(=O)N[C@@H](CC(N)=O)C(=O)N[C@@H](CC(C)C)C(=O)O`, the retention time was 15.9 min (RP-HPLC C18).
